Experimental data collected from several papers.
Lines come from different studies, so protocols differ.

Cc1cc(-c2nccc3c2ccn3CC(=O)Nc2ccc(-c3cnccn3)cn2)ccn1
subjects with Dizziness TEAEs (human; SAD part, single 20 mg dose): 0%

CC(C)n1c(Nc2cccnc2)nc2cnc(Nc3ccc(N4CCN(C)CC4)cc3)nc21
subjects with TEAE (measured: any TEAE; healthy human, male; oral, dose not given, CTCAE grade 1-3): 71.4%

CC(C)(C(=O)N1CCOc2c(C#N)cncc2C1)C(F)F
subjects with adverse event (measured: Dyspepsia; human; oral, 20 mg twice daily, 14 days, multiple ascending dose): 0%

Cc1cc(Nc2cc3ncccc3c(N[C@@H]3C[C@H]4CC[C@@H](C3)N4CCC#N)n2)n[nH]1
subjects with contact dermatitis (healthy human; oral, 10 mg multiple doses, 14 days): 50%

C[C@H]1CN(C(=O)CC#N)[C@]12CCN(c1ncnc3[nH]ccc13)C2
subjects with dry skin (healthy human; oral, 3 mg single): 12.5%

CN1CCN(c2cccc3c2CCN(C(=O)/C=C/c2c(-n4cnnn4)ccc(Cl)c2F)[C@@H]3C(=O)Nc2ccc(C(=O)O)cc2)C(=O)C1
subjects with any adverse event (healthy human subjects; intravenous infusion, 10 mg/h, 2 h): 0%

CNC(=O)c1ccc(-c2cnc3ncc(Cc4ccc5ncccc5c4)n3n2)cc1F
subjects with adverse event (healthy human subjects; oral, 200 mg, Hypertension, grade 3, all causality, with: itraconazole 200 mg/day): 7.4%

C[C@@H](Oc1ccc(S(C)(=O)=O)cc1C(=O)N1C[C@@H]2C[C@]2(c2cc(C(F)(F)F)on2)C1)C(F)(F)F
subjects with related nervous disorders (human; oral plus intravenous microtracer, dose not given): 16.7%

Repeated from above:
CC(C)n1c(Nc2cccnc2)nc2cnc(Nc3ccc(N4CCN(C)CC4)cc3)nc21
subjects with TEAE (measured: any TEAE; healthy human, male; oral, dose not given, CTCAE grade 1-3): 71.4%
